Assay results collected from several papers.
Compare with care: the assays were run in different laboratories. ± marks the error that the study gave.

Under “revertants per plate”, CC(=O)N1CCC(C(=O)N2CCN3C(=O)c4cc(-c5ccccc5)ccc4NC(=O)C3C2)CC1 (centres unmarked) is recorded as 37 (Salmonella typhimurium; TA98; 1581 µg/plate, added: rat liver S9).
For Fc1ccc(C2=CCNCC2)cc1, the induction factor was 1.6 (Salmonella typhimurium; SOS response, SOS/umu test; TA1535/pSK1002, TGA medium; 0.001 mg/mL, 4 h, added: rat liver S9; reference: untreated).
For Cc1ccc2nc(C3CCCN(Cc4cccc(-c5cccnc5)c4)C3)[nH]c(=O)c2c1 (centres unmarked), the cytotoxicity efficacy was 0% (Vero-E6; CellTiter-Glo ATP; concentration not given, 72 h, second round 5-point; reference: DMSO 0%, hyamine -100%, more negative, more toxic).
Under “revertant colonies per plate”, COc1cccc(-c2n[nH]c(SCc3ccccn3)n2)c1OC is recorded as 4 (Salmonella typhimurium; Ames test, plate incorporation; TA1537; 2.0 mg/plate, with rat liver S9).
For O=[N+]([O-])c1ccc(N2CCC(NCCC(O)c3ccc(F)c4ccccc34)CC2)c(C(F)(F)F)c1 (centres unmarked), the induction factor was 0.7 (Salmonella typhimurium; SOS response, SOS/umu test; TA1535/pSK1002, TGA medium; 0.000488 mg/mL, 4 h, without S9; reference: untreated).
For CCOC(=O)C1=C(CN2CCC[C@H]2C(=O)Nc2cccc(B(O)O)c2)NC(c2nccs2)=N[C@H]1c1ccc(F)cc1Br, the selectivity index was 17 (hepatitis B virus; HepDES19; reference: CC50 over EC50).
The revertant ratio of Cc1cc(C(=O)NC(C)(C)COc2cccc3c2C(N)=NS(=O)(=O)N3)cc(C)n1 is reported as 1 (Salmonella typhimurium; Ames test; TA100; 1500 µg/plate, without S9; reference: treated over solvent).
With CCOC(=O)C1=C(CN2CCN(Cc3ccc(B(O)O)cc3)CC2)NC(c2nccs2)=NC1c1ccc(F)cc1Br (centres unmarked) the selectivity index was 30 (hepatitis B virus; HepDES19; reference: CC50 over EC50).
Cc1cccc(N2CCN(C(=O)C3CCN(Cc4nc(-c5ccc(Cl)cc5)oc4C)CC3)CC2)c1C has a cytotoxicity efficacy of 0% (Vero-E6; CellTiter-Glo ATP; concentration not given, 72 h, first round 5-point; reference: DMSO 0%, hyamine -100%, more negative, more toxic).
For CCOC(=O)C1=C(CN2CCCC2C(=O)Nc2ccc(B(O)O)cc2)NC(c2nccs2)=NC1c1ccc(F)cc1Br (centres unmarked), the selectivity index was 156 (hepatitis B virus; HepDES19; reference: CC50 over EC50).
For [Cl-].[Cl-].[Pt+2].[Ru+2].c1ccc(-c2nc3ccccc3nc2-c2ccccn2)nc1.c1cnc2c(c1)ccc1cccnc12.c1cnc2c(c1)ccc1cccnc12, the survival rate was 90 ± 2.7% (Danio rerio; embryos; 15 µM, 48 h).
